Assay results from different studies.
± marks the error that the study gave.
Cell line: MCF7

CC[C@H](C)[C@@H]1NC(=O)[C@H](CCCCN)NC(=O)[C@H](CCCCN)NC(=O)[C@H](Cc2ccc(O)cc2)NC(=O)[C@H](CC(C)C)NC(=O)[C@@H]2CCCN2C(=O)[C@H](C)NC(=O)CNC(=O)CNC(=O)[C@H](CO)NC(=O)CNC(=O)CNC(=O)[C@H](CO)NC(=O)[C@H](CCC(=O)O)NC(=O)[C@H](CC(C)C)NC(=O)[C@H](CC(C)C)NC(=O)[C@H](CCCCN)NC(=O)[C@H](CCCCN)NC(=O)[C@H]([C@@H](C)CC)NC(=O)[C@H]([C@@H](C)CC)NC(=O)[C@H](CCCCN)NC(=O)[C@H](CCCCN)NC(=O)[C@H](Cc2ccc(O)cc2)NC(=O)[C@H](CC(C)C)NC(=O)[C@@H]2CCCN2C(=O)CNC(=O)CNC(=O)CSC[C@@H](C(N)=O)NC(=O)[C@H](CC(C)C)NC(=O)[C@H](CCCCN)NC(=O)[C@H](CCCCN)NC(=O)[C@H]([C@@H](C)CC)NC1=O  CC50 (cell viability, resazurin; 24 h): 16.9 ± 0.8 µM
CC(C)C[C@@H]1NC(=O)[C@@H](Cc2c[nH]c3ccccc23)NC(=O)[C@H](CCCN)NC(=O)[C@@H](CO)NC(=O)[C@H](CCC(N)=O)NC(=O)[C@@H](CCC(=O)O)NC(=O)[C@H](CO)NC(=O)[C@@H](Cc2c[nH]c3ccccc23)NC1=O  CC50 (cytotoxicity): > 40 µM
CCCCn1cc(C(=O)O)c(=O)c2cc(F)c(Nc3cccc(Cl)c3)c(N)c21  IC50 (cell growth, SRB; 72 h): 8.73 ± 0.75 µg/mL
O=C(CCc1ccccc1)NOC(=O)OCc1ccccc1  viability (800 µM): < 30%
CCCCCC1CCCCCCC(=O)CCC(=O)OCC2OC(OC3C(O1)OC(C)C(OC(C)=O)C3O)C(O)C(O)C2OC(=O)C=Cc1ccccc1 (centres unmarked)  IC50 (cytotoxicity): 5.93 µM
N=C(N)NCCC[C@H](NC(=O)[C@@H]1CCCN1C(=O)[C@H](CC(N)=O)NC(=O)[C@H](Cc1ccccc1)NC(=O)[C@H](Cc1c[nH]cn1)NC(=O)[C@H](Cc1ccccc1)NC(=O)[C@H](Cc1ccccc1)NC(=O)Cc1ccc2ccccc2c1)C(=O)O  remaining peptide (cell lysate; 200 µM, 1 h, added: bortezomib 100 nM): 50%
CCCCn1cc(C(=O)O)c(=O)c2cc(F)c(Nc3ccccc3Cl)c(N)c21  IC50 (cell growth or viability, SRB): 58 µM
CCCCCC1CCCCCCC(=O)CCC(=O)OCC2OC(OC3C(O1)OC(C)C(OC(C)=O)C3O)C(O)C(OC(=O)C(C)CC)C2OC(=O)C=Cc1ccccc1 (mixture of isomers)  IC50 (cytotoxicity): 0.477 µM
CC(C)C[C@@H]1NC(=O)[C@@H](Cc2c[nH]c3ccccc23)NC(=O)[C@H](CCCNC(=N)N)NC(=O)[C@@H](CCC(=O)O)NC(=O)[C@H](CCC(N)=O)NC(=O)[C@@H](CCC(=O)O)NC(=O)[C@H](CCCNC(=N)N)NC(=O)[C@@H](Cc2c[nH]c3ccccc23)NC1=O  CC50 (cytotoxicity): > 40 µM
CCCCn1cc(C(=O)O)c(=O)c2cc(F)c3c(nnn3-c3ccccc3Cl)c21  IC50 (cell growth, SRB; 72 h): 30.8 ± 4.56 µg/mL
COc1cc2c(cc1OC)C(=O)C(=Cc1ccc(N3CC[N+](C)(C)CC3)cc1)C2  LD50 (cell viability, MTT; 48 h): 2.21 µM

For quick reference, copied from above:
CCCCCC1CCCCCCC(=O)CCC(=O)OCC2OC(OC3C(O1)OC(C)C(OC(C)=O)C3O)C(O)C(O)C2OC(=O)C=Cc1ccccc1 (centres unmarked)  IC50 (cytotoxicity): 5.93 µM
N=C(N)NCCC[C@H](NC(=O)[C@@H]1CCCN1C(=O)[C@H](CC(N)=O)NC(=O)[C@H](Cc1ccccc1)NC(=O)[C@H](Cc1c[nH]cn1)NC(=O)[C@H](Cc1ccccc1)NC(=O)[C@H](Cc1ccccc1)NC(=O)Cc1ccc2ccccc2c1)C(=O)O  remaining peptide (cell lysate; 200 µM, 1 h, added: bortezomib 100 nM): 50%
